Results from different studies.
Each line is one published result; not all experiments were run side by side. Several values in a cell are separate wells, animals, samples, runs or records. Numbers after ± are the reported error.

CCN(CC)c1ccc(C=NNC(=O)CSc2nc3ccccc3c(=O)n2Cc2ccc(S(N)(=O)=O)cc2)c(O)c1
CC50 (OVCAR-5; NCI five-dose screen): > 100 µM

COc1cc(CCC[P+](c2ccccc2)(c2ccccc2)c2ccccc2)c(OC)c2c1OCO2.[I-]
LC50 (Malme-3M; SRB): -4.46 log M

C[C@]12CC[C@H](O)C[C@H]1CC[C@@H]1[C@@H]2CC[C@]2(C)[C@@H](c3ccc(=O)oc3)CC[C@]12O
control reporter activity (T47D; luciferase; 100 nM, reporter without ERE, unit not given; reference: untreated): 0.194 and 0.209 and 0.126

Oc1ccc(C(c2ccc(O)cc2)(C(F)(F)F)C(F)(F)F)cc1
S phase cells (HepG2 spheroids; Hoechst flow cytometry; 40 µM, 24 h): 6.57 ± 1.44%

CCOc1ccn(-c2ccc(F)cc2)c(=O)c1C(=O)Nc1ccc(Oc2ccnc(N)c2Cl)c(F)c1
maximum inhibition (human coronavirus OC43; virus-induced cell killing; MRC-5; screen): 2.48%

O=S(=O)(c1ccc(O)cc1)c1ccc(O)cc1
spheroid area increase (HepG2 spheroids; planimetry; 10 µM, 0 to 24 h; reference: mean area of 72 h spheroids): 153%

COc1c(C)c2c(c(O)c1C/C=C(\C)CCC(=O)O)C(=O)OC2
IC50 (C-33-A; cell proliferation): 1050 nM

Cn1c(COP(=O)(NCCBr)NCCBr)cnc1[N+](=O)[O-]
inhibition (THP-1; pyroptotic LDH release; 2 µM, 40 min, together with: LPS then nigericin): 46%

COc1c(CCC[P+](c2ccccc2)(c2ccccc2)c2ccccc2)cc2c(c1OC)OCO2.[I-]
LC50 (OVCAR-5; SRB): > -4 log M

Cc1cnc2ccc3c(nc(N)n3C)c2n1
colony number (BALB/c 3T3; colony forming efficiency; 0.5 µM): 87 colonies per plate and 101 colonies per plate and 99 colonies per plate

CC(C)C[C@@H]1NC(=O)[C@@H]2CSSC[C@@H](C(=O)NCC(N)=O)NC(=O)[C@H](Cc3ccccc3)NC(=O)CNC(=O)[C@H](CC(N)=O)NC(=O)[C@@H]3CCCN3C(=O)CNC(=O)[C@@H]3CSSC[C@H](NC(=O)[C@H]([C@@H](C)O)NC(=O)[C@H](CC(C)C)NC(=O)[C@@H]4CCCN4C(=O)[C@@H]4CCCN4C(=O)[C@H](CC(N)=O)NC(=O)[C@H](CC(=O)O)NC(=O)CNC(=O)[C@H](CCCNC(=N)N)NC(=O)[C@@H]4CCCN4C(=O)[C@H](CCCNC(=N)N)NC(=O)[C@@H]4CCCN4C(=O)[C@@H](NC(=O)CN)CSSC[C@H](NC(=O)CNC(=O)[C@H](C)NC1=O)C(=O)N[C@@H](C(C)C)C(=O)N3)C(=O)N[C@@H](CCCN=[N+]=[N-])C(=O)N[C@@H](CCC(N)=O)C(=O)N[C@@H](CC(=O)O)C(=O)N[C@@H](CO)C(=O)N[C@@H](CC(=O)O)C(=O)N2
ED50 (U-87 MG; cell proliferation, CCK-8; 4 d; reference: untreated): > 1000 nM

CC(C)N1CCC(NC2CCN(c3cccc(-c4cc5cc(F)ccc5[nH]4)c3)CC2)CC1
GI50 (OVCAR-5): 1830 nM

Cc1sc2c(c1C)C(c1ccc(Cl)cc1)=N[C@@H](CC(=O)OC(C)(C)C)c1nnc(C)n1-2
log2 fold change (iCas9-MOLM-13 sgGFP; RNA-seq, item: CPNE7; 50 nM, 24 h; reference: DMSO): -1.14

Cc1nn(-c2nc3ccc(Cl)c(Cl)c3[nH]2)c(O)c1C1OC(=O)c2ccccc21 (stereo not drawn)
viability (RAW-ISG; CCK-8; 3 µM): 106% and 100% and 107% and 101% and 103%

C=C(C)[C@@H]1CCC(C)=C[C@H]1c1c(O)cc(CCCCC)cc1O
Ca2+ signal (human CATSPER2-/- sperm; fluorimetry; 10 µM): inhibited

CC(CCc1ccccc1)NC(C)C(O)c1ccc(O)cc1 (stereo not drawn)
Z score (MDA-MB-231 BAX/BAK siRNA knockdown; cell viability, CellTiter-Glo; direction not given): 1.41

CCCCCCCCC[C@@H]1CC(=O)NCC(=O)N[C@H](Cc2ccc(O)cc2)C(=O)NCC(=O)N[C@@H](Cc2ccccc2)C(=O)O1
TNF-alpha level (BV-2 mouse microglia; ELISA; culture supernatant; 5 µM, together with: LPS): decreased

C/C=C(/C)C(=O)O[C@H]1C(C)=C2[C@H]([C@@H]1OC(=O)CCCCCCC)[C@@](C)(OC(C)=O)C[C@H](OC(=O)CCC)[C@@]1(O)[C@H]2OC(=O)[C@@]1(C)O
log2 fold change (HEK293T; RNA-seq, item: TRIB3 mRNA; 10 µM, 6 h; reference: vehicle): 3.37

Oc1cc(Cl)ccc1Oc1ccc(Cl)cc1Cl
point of departure (HepG2; item: NF-κB nuclear translocation; 24 h, distribution mode 2): 17 µM

Nc1ncnc2c1ncn2[C@@H]1O[C@@H]2COP(=O)(O)O[C@H]3[C@@H](O)[C@H](n4cnc5c(=O)[nH]cnc54)O[C@@H]3COP(=O)(O)O[C@H]2[C@H]1O
fold enrichment (HFF-1; RNA sequencing, item: Reactome Interleukin-10 signaling; upregulated pathways; reference: mock): 12.6

Cn1cncc1C1=CN(c2ncnc3[nH]cnc23)CCS1
CC50 (Malme-3M; melanoma cell line): > 200 µM

COc1ccc2c(c1)[nH]c1c(C)nccc12
DNA methylation (DU-145; bisulfite pyrosequencing, item: RASSF1A promoter CpG site 20; 10 µM, 16 h): 83.8%

C[C@]12CC[C@H](O)C[C@H]1CC[C@@H]1[C@@H]2C[C@@H](O)[C@]2(C)[C@@H](C3=CC(=O)OC3)CC[C@]12O
MyBP-C level change (human iPSC cardiomyocytes; plate-normalised; concentration not given, hit retest; reference: vehicle controls, SDs below control): 14.7 SD

CN1CCN(C2(CNC3CCN(c4cccc(-c5cc6cc(F)ccc6[nH]5)c4)CC3)CCC2)CC1
GI50 (COLO 205): 1130 nM

O=C1N(Cc2ccccc2Cl)c2ccccc2C12NN=C(c1ccccc1)S2 (stereo not drawn)
fold change (MDA-MB-468; gene expression array, item: HNRNPA2B1 mRNA; 10 µM, 12 h; reference: untreated, down): 1.61

CN(C)C(=O)c1cc2cnc(Nc3ccc(N4CCNCC4)cn3)nc2n1C1CCCC1
EC50 (patient-derived GBM lines; cell viability; 72 h): 1000 to 2800 nM

Cc1cc(C(C)(C)c2ccc(O)c(C)c2)ccc1O
G1 phase cells (HepG2 spheroids; Hoechst flow cytometry; 10 µM, 96 h): 68 ± 11.6%

Nc1ncc(-c2nc(N3CCOCC3)nc(N3CCOCC3)n2)c(C(F)F)n1
GI50 (RT-4; 72 h): 305 nM

N[C@@H](C[18F])C(=O)O
inhibition of cellular uptake (U-87 MG; concentration not given, together with: L-alanine 5 mM): 78%

Cn1nccc1Nc1nccc(-c2ccn([C@H](CO)c3ccc(Cl)c(F)c3)c(=O)c2)n1
PI-positive cells (HCT116; IncuCyte; concentration not given, 32 (unit not given)): 8.42 count and 6.5 count and 10.2 count

COc1cc(C[C@@H](C)[C@@H](C)Cc2cc(O)c(OC)c(OC)c2)cc(O)c1OC
IL-6 mRNA level (THP-1, PMA-differentiated; 10 µM, 24 h, together with: LPS 1 µg/mL; reference: LPS model): decreased

Cn1cc2cc(C(F)(F)c3nnc4ccc(-c5cnn(C6CC6)c5)nn34)c(F)cc2n1
cleaved PARP level (MKN-45; western blot; concentration not given, 48 h): increased

CC1=C2C(=C[C@@](C)(CO)[C@@H]2O)C(=O)[C@](C)(O)C12CC2
LD20 (RPE-1 hTERT TP53-/- cells; cell viability): 1.4 ng/mL

CC(=O)NC1CCSC1=O (stereo not drawn)
inhibition (THP-1; pyroptotic LDH release; 2 µM, 40 min, together with: LPS then nigericin): -7.46%

Oc1ccc(C2(c3ccc(O)cc3)c3ccccc3-c3ccccc32)cc1
S phase cells (HepG2 spheroids; Hoechst flow cytometry; 10 µM, 24 h): 7.81 ± 1.78%

O=C1CCP(=S)(c2ccccc2)CC1
early apoptotic cells (SW-620; annexin V/PI flow cytometry; IC50, 72 h): 2.55%

COC(=O)NC(=S)Nc1ccccc1NC(=S)NC(=O)OC
inhibition (THP-1; pyroptotic LDH release; 2 µM, 40 min, together with: LPS then nigericin): 2.3%

NOCC[C@H](N)C(=O)O
maximum inhibition (human coronavirus OC43; virus-induced cell killing; MRC-5; screen): 15.6%

O=c1cc(-c2ccc(O)cc2)oc2cc(O)cc(O)c12
GFP fluorescence (SH-SY5Y Aβ-GFP cells; Aβ folding; 1 to 5 µM; reference: untreated induced cells): 115 to 152%

Some of these lines once more:
CC(=O)NC1CCSC1=O (stereo not drawn)
inhibition (THP-1; pyroptotic LDH release; 2 µM, 40 min, together with: LPS then nigericin): -7.46%

Oc1ccc(C2(c3ccc(O)cc3)c3ccccc3-c3ccccc32)cc1
S phase cells (HepG2 spheroids; Hoechst flow cytometry; 10 µM, 24 h): 7.81 ± 1.78%

O=C1CCP(=S)(c2ccccc2)CC1
early apoptotic cells (SW-620; annexin V/PI flow cytometry; IC50, 72 h): 2.55%

COC(=O)NC(=S)Nc1ccccc1NC(=S)NC(=O)OC
inhibition (THP-1; pyroptotic LDH release; 2 µM, 40 min, together with: LPS then nigericin): 2.3%

NOCC[C@H](N)C(=O)O
maximum inhibition (human coronavirus OC43; virus-induced cell killing; MRC-5; screen): 15.6%

O=c1cc(-c2ccc(O)cc2)oc2cc(O)cc(O)c12
GFP fluorescence (SH-SY5Y Aβ-GFP cells; Aβ folding; 1 to 5 µM; reference: untreated induced cells): 115 to 152%
